Measurements from different studies.
Numbered parts are unrelated; each lists some results of a single study.

Sample 1 — method: protein binding microarray; molecule type: double-stranded DNA, one strand shown; medium: in vitro; concentration: not given; relative to: not given; reading: higher = stronger binding
Target: Histone acetyltransferase KAT6A, winged helix 1, GST fusion (KAT6A, Homo sapiens, UniProt Q92794, residues 1-85)
Setting: 8-mer, flanks averaged, mean of 2 arrays, mostly near background
Residues (chain): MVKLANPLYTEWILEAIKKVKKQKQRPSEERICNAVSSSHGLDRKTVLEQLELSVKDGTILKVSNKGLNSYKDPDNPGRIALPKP
| Oligonucleotide | E-score |
| --- | --- |
| TATGCTCA | -0.172 |
| AAAATCCA | -0.314 |
| CTGGCTCC | 0.0176 |
| GAGACTCA | -0.244 |
| AATACAGG | 0.0696 |
| CTGTCTGA | -0.056 |
| AATGTGGG | -0.165 |
| AACGGTCA | 0.205 |

Sample 2 — method: protein-binding microarray; molecule type: double-stranded DNA, one strand shown; medium: in vitro; concentration: 250 nM; setting: 60-bp whole probe; with: salmon DNA 0.4 mg/ml; relative to: random background probes; reading: higher = stronger binding; all sequences stand within: GCCTAGCAC … GTCTTGATTCGCTTGACGCTGCTG
Target: Interferon regulatory factor 7, full length, phosphomimetic (IRF7, Homo sapiens, UniProt Q92985, residues 1-503, S101K/S471D/S472D/S475D/S476D/S477D/S483D/S484D/S487D)
Target sequence (chain): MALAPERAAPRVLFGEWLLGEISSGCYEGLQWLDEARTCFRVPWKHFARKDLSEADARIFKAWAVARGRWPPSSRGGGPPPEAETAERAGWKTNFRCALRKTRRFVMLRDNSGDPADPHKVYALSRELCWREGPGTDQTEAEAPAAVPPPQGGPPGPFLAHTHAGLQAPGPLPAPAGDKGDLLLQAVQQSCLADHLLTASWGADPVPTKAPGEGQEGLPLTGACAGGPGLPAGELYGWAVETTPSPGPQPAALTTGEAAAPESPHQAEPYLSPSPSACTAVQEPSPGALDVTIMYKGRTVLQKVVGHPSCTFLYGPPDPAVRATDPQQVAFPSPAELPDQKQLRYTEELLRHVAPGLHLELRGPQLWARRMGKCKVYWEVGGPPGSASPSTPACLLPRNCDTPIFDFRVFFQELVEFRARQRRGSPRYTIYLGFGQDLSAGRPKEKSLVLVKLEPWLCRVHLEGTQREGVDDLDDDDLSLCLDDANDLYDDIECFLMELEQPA
| Oligonucleotide | log fluorescence |
| --- | --- |
| TTAGTTCTCCTTCTCCTTTAGTGCTAG | 1.39 z-score |
| GACGGTTTCCTTTTCCGGACGTGCTAG | 6.64 z-score |
| AACCACATAGGAAGAACAACGTGCTAG | -0.125 z-score |
| GACGATATCGGGTTTCGAGGCGTGCTA | 1.35 z-score |
| TTAGAACTCGGGTATCGATTAGTGCTA | 0.864 z-score |
| TCAGTTCTCAGACTGGGACTGTGCTAG | 1.06 z-score |
| GCATTTTTCTAATTTACTTTGTGCTAG | 1.77 z-score |
| GACGGACTGCTACTGCTGAGGTGCTAG | -0.958 z-score |

Sample 3 — method: universal PBM; molecule type: double-stranded DNA, one strand shown; medium: in vitro; concentration: not given; reading: higher = stronger binding
Target: Sal-like protein 4, full length isoform B (SALL4, Homo sapiens, UniProt Q9UJQ4-2, residues 1-616)
Setting: 8-mer, flanks averaged, mean of replicates
Target sequence (chain): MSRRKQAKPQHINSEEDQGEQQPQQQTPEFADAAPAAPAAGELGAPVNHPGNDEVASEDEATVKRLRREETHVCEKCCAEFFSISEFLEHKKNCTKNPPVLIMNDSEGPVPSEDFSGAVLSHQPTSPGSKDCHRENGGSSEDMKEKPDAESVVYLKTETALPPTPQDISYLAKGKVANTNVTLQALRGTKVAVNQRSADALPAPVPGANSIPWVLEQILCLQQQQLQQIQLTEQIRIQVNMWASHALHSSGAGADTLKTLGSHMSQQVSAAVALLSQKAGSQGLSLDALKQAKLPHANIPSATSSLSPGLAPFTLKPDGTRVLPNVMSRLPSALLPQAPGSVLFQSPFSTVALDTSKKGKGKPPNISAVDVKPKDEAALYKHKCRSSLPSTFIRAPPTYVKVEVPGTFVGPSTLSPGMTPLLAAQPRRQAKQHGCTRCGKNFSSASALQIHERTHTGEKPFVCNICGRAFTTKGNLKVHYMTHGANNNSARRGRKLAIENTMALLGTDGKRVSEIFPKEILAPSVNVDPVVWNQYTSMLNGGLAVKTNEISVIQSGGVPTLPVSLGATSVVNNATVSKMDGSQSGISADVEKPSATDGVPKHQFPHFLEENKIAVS
| Oligonucleotide | E-score |
| --- | --- |
| CCTAATCC | -0.0635 |
| CACCCCGC | -0.182 |
| GATACACA | 0.164 |
| CGGCTCCA | -0.267 |
| GACTACCC | -0.264 |
| GGTTGGTA | -0.00019 |
| ATGTGCAC | -0.0048 |
| CTTCCACC | -0.0183 |

Sample 4 — cell line: HEK-293T; effect on: pseudovirus infection; method: FDA-approved drug library screen; organism: VSV pseudotyped with SARS-CoV-2 spike; concentration: 10 µM; time: 16 h; relative to: vehicle-treated
| SMILES | GFP-positive cells |
| --- | --- |
| CC1CCC(C(C)C)C(O)C1 (racemic) | 84.2% |
| Cc1cnc(C(=O)N[C@H]2CCCCC/C=C\[C@@H]3C[C@@]3(C(=O)NS(=O)(=O)C3CC3)NC(=O)[C@@H]3C[C@@H](Oc4nc5ccccc5c5ccccc45)CN3C2=O)cn1 | 91.7% |
| CC[C@@]1(O)C(=O)OCc2c1cc1n(c2=O)Cc2cc3c(CN(C)C)c(O)ccc3nc2-1 | 79.6% |

Sample 5 — mode: inhibitor; concentration: 20 µM
Target: Replicase polyprotein 1ab, nsp13 helicase (rep, Severe acute respiratory syndrome coronavirus 2, UniProt P0DTD1)
| Compound | inhibition |
| --- | --- |
| N[C@@H](C(=O)O)[C@@H](OCc1ccccc1)C(=O)O | 2.97% |
| O=C(NCCCNc1nc(Nc2cccc(NC(=O)N3CCCC3)c2)ncc1I)c1cccs1 | 9.32% |
| CCn1nc(C2CCN(C(=O)CCO)CC2)nc1-c1cnc(N)c(-c2nnc(C(C)(C)C)o2)n1 | 0.95% |
| CN1[C@@H]2CC[C@H]1C[C@@H](OC(=O)C(CO)c1ccccc1)C2 (stereo partly shown) | 5.21% |
| COc1ccc([C@@H]2CC(=O)c3c(O)cc(O)cc3O2)cc1O | 1.63% |
| CC(C)c1nc(CN(C)C(=O)N[C@H](C(=O)N[C@@H](Cc2ccccc2)C[C@H](O)[C@H](Cc2ccccc2)NC(=O)OCc2cncs2)C(C)C)cs1 | -0.27% |
| NC(=O)c1cccnc1 | -1.22% |
| CCCS(=O)(=O)Nc1ccc(F)c(C(=O)c2c[nH]c3ncc(-c4ccc(Cl)cc4)cc23)c1F | 3.79% |
| c1cnc2cc3c(cc2n1)[C@@H]1CNC[C@H]3C1 | 3.99% |
| CO/N=C(\C(=O)N[C@@H]1C(=O)N2C(C(=O)O)=C(C[N+]3(C)CCCC3)CS[C@H]12)c1csc(N)n1 | 4.66% |
| Cc1ccc(Cl)c(OCC(O)CNC(C)C)c1 (stereo not shown) | -2.44% |
| Cn1nc(-c2ccc(C(F)(F)F)cc2)nc2c(=O)n(C)c(=O)nc1-2 | 11.3% |
| CCc1ccc(OCc2ccccc2C(=O)Nc2ccc3nc(C)cc(N)c3c2)cc1 | 3.83% |
| CCCC1(CCC)CCC2(CCN(CCCN(CC)CC)C2)CC1 | -1.95% |
| CC(C)(C)c1ccc(CN2CCN(C(c3ccccc3)c3ccc(Cl)cc3)CC2)cc1 (stereo not shown) | 3.51% |
| CN(C)CCCSc1ccccc1NC(=O)/C=C/c1ccccc1 | 0.82% |
| COc1ccccc1OCCNCC(O)COc1cccc2[nH]c3ccccc3c12 (stereo not shown) | 14.9% |
| CS(=O)(=O)c1ccc(-c2cc(Br)sc2-c2ccc(F)cc2)cc1 | 2.47% |
| [O-][n+]1cccc(CO)c1 | -6.28% |
| O=[N+]([O-])c1cncn1CCN1CCOCC1 | 0.91% |
| CC(CNC1CCCCC1)OC(=O)c1ccccc1 (stereo not shown) | 4.88% |
| COc1cc2c(cc1OC)[C@H]1CC(=O)[C@H](CC(C)C)CN1CC2 | -4.06% |
| CCCCC(CC)CCC(CC(C)C)OS(=O)(=O)O (stereo not shown) | 82.2% |
| O=C(O)c1ccc(NC(=O)[C@H](Cc2ccc(O)cc2)NC(=O)c2ccccc2)cc1 | 9.11% |
| CC#CC(=O)N1CC[C@@H](n2c(=O)n(-c3ccc(Oc4ccccc4)cc3)c3c(N)ncnc32)C1 | 14.4% |

For quick reference, copied from above (sample 5):
| Compound | inhibition |
| --- | --- |
| CN1[C@@H]2CC[C@H]1C[C@@H](OC(=O)C(CO)c1ccccc1)C2 (stereo partly shown) | 5.21% |
| CCCC1(CCC)CCC2(CCN(CCCN(CC)CC)C2)CC1 | -1.95% |
| CCc1ccc(OCc2ccccc2C(=O)Nc2ccc3nc(C)cc(N)c3c2)cc1 | 3.83% |
| [O-][n+]1cccc(CO)c1 | -6.28% |
| CC(C)(C)c1ccc(CN2CCN(C(c3ccccc3)c3ccc(Cl)cc3)CC2)cc1 (stereo not shown) | 3.51% |
| CS(=O)(=O)c1ccc(-c2cc(Br)sc2-c2ccc(F)cc2)cc1 | 2.47% |
| CO/N=C(\C(=O)N[C@@H]1C(=O)N2C(C(=O)O)=C(C[N+]3(C)CCCC3)CS[C@H]12)c1csc(N)n1 | 4.66% |
